Measurements from different studies.
Several values in a cell are separate wells, animals, samples, runs or records. Numbers after ± are the reported error.
Chain of UniProt P35372 (whole entry, looked up): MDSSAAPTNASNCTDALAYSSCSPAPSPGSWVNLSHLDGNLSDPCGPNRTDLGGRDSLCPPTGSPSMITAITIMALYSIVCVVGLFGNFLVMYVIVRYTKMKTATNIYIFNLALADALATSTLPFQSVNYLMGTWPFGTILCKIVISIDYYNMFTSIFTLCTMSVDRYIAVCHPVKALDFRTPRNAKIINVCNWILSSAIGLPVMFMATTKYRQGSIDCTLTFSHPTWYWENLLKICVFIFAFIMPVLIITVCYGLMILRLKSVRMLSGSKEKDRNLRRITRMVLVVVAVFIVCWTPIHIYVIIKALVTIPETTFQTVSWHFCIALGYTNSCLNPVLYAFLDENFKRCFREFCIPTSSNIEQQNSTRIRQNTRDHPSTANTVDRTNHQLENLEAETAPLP
Chain of UniProt P9WI81 (whole entry, looked up): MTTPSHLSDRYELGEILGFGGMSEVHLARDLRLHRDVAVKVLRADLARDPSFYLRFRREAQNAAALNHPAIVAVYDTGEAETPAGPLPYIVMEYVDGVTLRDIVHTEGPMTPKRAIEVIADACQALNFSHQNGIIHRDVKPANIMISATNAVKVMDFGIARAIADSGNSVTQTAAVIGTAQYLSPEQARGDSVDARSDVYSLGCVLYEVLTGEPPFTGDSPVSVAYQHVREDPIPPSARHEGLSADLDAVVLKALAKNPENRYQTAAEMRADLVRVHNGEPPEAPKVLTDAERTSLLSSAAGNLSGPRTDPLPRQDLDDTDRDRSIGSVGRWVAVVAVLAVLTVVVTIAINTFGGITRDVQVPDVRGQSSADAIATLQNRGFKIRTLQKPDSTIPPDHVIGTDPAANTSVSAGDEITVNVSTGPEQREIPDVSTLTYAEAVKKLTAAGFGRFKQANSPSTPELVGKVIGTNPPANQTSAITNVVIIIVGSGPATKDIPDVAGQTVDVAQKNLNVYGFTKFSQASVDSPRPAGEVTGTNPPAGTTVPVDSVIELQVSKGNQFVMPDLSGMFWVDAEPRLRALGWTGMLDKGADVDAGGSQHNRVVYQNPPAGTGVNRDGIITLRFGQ

`FC(F)(F)c1ccc(C2=NOC3(NC(c4ccccc4)=NO3)N2c2ccccc2)cc1` (stereo not shown) gave an IC50 of 16.4 ± 7.75 µM (Plasmodium falciparum; parasite growth; SB1-A6 atovaquone-resistant; 72 h).
The specific binding of `N=C(N)NCCCCCCN1CCC23c4c5ccc(O)c4OC2c2nc4ccccc4cc2CC3(O)C1C5` (stereo not shown) is reported as 121% and 94.4% and 132% (Mu-type opioid receptor (OPRM1, Homo sapiens, UniProt P35372); competitor, radioligand binding; 10 pM).
`C#CCN1C(=O)C(O)(C(=O)O)Oc2cc(F)ccc21` (stereo not shown) has a hypocotyl length of 1.95 cm and 2.06 cm and 1.93 cm and 1.89 cm (Arabidopsis thaliana; Col-0; 6.25 µg/mL, seed germination, single repetition).
Under “log2 fold change”, `CCN1/C(=C/C=C2\CCCC(/C=C/C3=[N+](CC)c4ccccc4C3(C)C)=C2NCCCCCCCCN2CCC(Nc3nc4ccccc4n3Cc3ccc(F)cc3)CC2)C(C)(C)c2ccccc21` is recorded as -1.02 (U-87 MG; measured: COL4A2 mRNA; concentration not given; baseline: DMSO).
The IL-2 level of `Cn1cc(-c2cccc(CN3CCC4(CC3)COc3c4ccc4c3CN([C@H]3CCC(=O)NC3=O)C4=O)c2)cn1` is reported as 150 pg/mL and 139 pg/mL and 154 pg/mL (Jurkat; 10 nM, 24 h, together with: CD3/CD28 beads, 1:4).
The MIC of `CCCCC[C@@H]1CC(=O)N[C@@H](C(C)C)C(=O)N[C@H](CCCNC(=N)N)C(=O)N[C@@H](C(C)C)C(=O)NCC(=O)N2CCC[C@H]2C(=O)N[C@@H](CC(C)C)C(=O)N[C@H](CCCNC(=N)N)C(=O)N[C@@H](CCC(=O)O)C(=O)N[C@H](Cc2ccc(O)cc2)C(=O)N[C@H](Cc2c[nH]c3ccccc23)C(=O)NCCCC(=O)O1` is reported as > 64 µg/mL (Staphylococcus aureus; USA300; together with: menaquinone 64 µg/mL).
`CC[C@@]1(c2cccc(-c3c(F)cncc3OC)c2)C2=C(Nc3n[nH]cc31)[C@H](F)C(C)(C)CC2=O` (single isomer, unassigned) has a remaining binding of 75% (Serine/threonine-protein kinase PknB (pknB, Mycobacterium tuberculosis, UniProt P9WI81); binding, competition with immobilised ligand; 1 µM).

For quick reference, copied from above:
The IL-2 level of `Cn1cc(-c2cccc(CN3CCC4(CC3)COc3c4ccc4c3CN([C@H]3CCC(=O)NC3=O)C4=O)c2)cn1` is reported as 150 pg/mL and 139 pg/mL and 154 pg/mL (Jurkat; 10 nM, 24 h, together with: CD3/CD28 beads, 1:4).
